Assay results from different studies.
Every numbered part comes from another study and shows a few of its results, in no order.
Chain of UniProt Q92985 (whole entry, unmodified, looked up): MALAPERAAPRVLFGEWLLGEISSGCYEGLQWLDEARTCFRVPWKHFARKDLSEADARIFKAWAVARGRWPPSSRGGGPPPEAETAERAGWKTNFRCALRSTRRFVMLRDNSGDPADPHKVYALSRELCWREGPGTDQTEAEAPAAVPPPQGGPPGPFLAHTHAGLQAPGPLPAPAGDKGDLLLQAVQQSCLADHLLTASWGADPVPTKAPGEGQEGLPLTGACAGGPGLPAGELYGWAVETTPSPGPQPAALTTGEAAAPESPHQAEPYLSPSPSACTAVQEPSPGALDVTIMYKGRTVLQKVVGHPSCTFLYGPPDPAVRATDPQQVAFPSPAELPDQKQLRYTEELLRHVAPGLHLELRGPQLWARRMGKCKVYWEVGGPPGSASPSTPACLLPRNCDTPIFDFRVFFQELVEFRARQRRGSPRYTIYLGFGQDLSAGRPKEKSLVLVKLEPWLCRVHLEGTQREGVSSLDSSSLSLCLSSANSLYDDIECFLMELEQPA

Block 1 — method: aptamer microarray, sandwich; molecule type: DNA with 2'F-ANA; medium: in vitro; concentration: 200 nM; together with: Cy3 exosite-II aptamer, 400 nM; direction: higher = stronger binding
Target: Prothrombin, mature alpha-thrombin (F2, Homo sapiens, UniProt P00734)
Setting: whole 15-mer aptamer, many near background
Strand | mean fluorescence intensity [a.u.]
GGTTGGTGTGGTTGG (2'F-ANA at 4 6 7 8 10 11 13 14 15) | 54
GGTTGGTGTGGTTGG (2'F-ANA at 1 2 3 6 8 9 10 12 13) | 79.5
GGTTGGTGTGGTTGG (2'F-ANA at 2 3 4 5 7 9 10 11 13 15) | 87.5

Block 2 — method: protein binding microarray; molecule type: double-stranded DNA, one strand shown; medium: in vitro; concentration: not given; baseline: not given; direction: higher = stronger binding
Target: Histone acetyltransferase KAT6A, both winged helices, GST fusion (KAT6A, Homo sapiens, UniProt Q92794, residues 1-181)
Setting: 8-mer, flanks averaged, mean of 2 arrays, mostly near background
Residues (chain): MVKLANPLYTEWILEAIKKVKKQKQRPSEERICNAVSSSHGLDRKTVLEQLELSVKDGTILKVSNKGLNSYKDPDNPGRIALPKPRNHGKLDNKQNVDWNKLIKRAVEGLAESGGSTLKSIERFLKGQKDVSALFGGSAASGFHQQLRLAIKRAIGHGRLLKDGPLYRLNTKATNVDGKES
Strand | E-score
TCATGGGA | -0.0972
AAACCACA | -0.0737
GGATGACA | -0.0154

Further values, each from its own experiment
Substance | target | assay | test system | conditions | scale | endpoint | value
GCCTAGCACTCAGGTTTCGGTTCCGGTTAGTGCTAGGTCTTGATTCGCTTGACGCTGCTG | Interferon regulatory factor 7, full length, phosphomimetic (IRF7, Homo sapiens, UniProt Q92985, residues 1-503, S471D/S472D/S475D/S476D/S477D/S483D/S484D/S487D) | protein-binding microarray | double-stranded DNA, one strand shown, in vitro | 2200 nM top, 60-bp whole probe, together with: salmon DNA 0.4 mg/ml | baseline: random background probes, higher = stronger binding | fitted relative affinity | 11.5 z-score
PhoQ, residues 284 288 289 292 302 303 AAQSYM | PhoP, residues 12 14 15 18 19 NNFVT (Escherichia coli, UniProt P23836) | Sort-seq, item: YFP reporter | E. coli | PhoQ-PhoP variant library, together with: 10 µM Mg2+ | baseline: high Mg2+ state, higher = stronger signaling | fold induction | 20.8
GCCTAGCACTCATCACTCTAATCTCACACTGTGCTAGTCTTGATTCGCTTGACGCTGCTG | Interferon regulatory factor 5, full length, phosphomimetic (IRF5, Homo sapiens, UniProt Q13568-2, residues 1-514, K96S/S451D/S453D/S456D/S462D) | protein-binding microarray | double-stranded DNA, one strand shown, in vitro | 250 nM, 60-bp whole probe, together with: salmon DNA 0.4 mg/ml | baseline: random background probes, higher = stronger binding | log fluorescence | 0.845 z-score
